Measurements gathered from unrelated publications.
Parts stem from different laboratories: compare values within a part only. Positions count from the first letter of the parent shown.

Set 1
Target: Hepatocyte nuclear factor 3-alpha (Foxa1, Mus musculus, UniProt P35582, residues 1-468, full length assumed)
UniProt P35582, sequence (whole entry, looked up): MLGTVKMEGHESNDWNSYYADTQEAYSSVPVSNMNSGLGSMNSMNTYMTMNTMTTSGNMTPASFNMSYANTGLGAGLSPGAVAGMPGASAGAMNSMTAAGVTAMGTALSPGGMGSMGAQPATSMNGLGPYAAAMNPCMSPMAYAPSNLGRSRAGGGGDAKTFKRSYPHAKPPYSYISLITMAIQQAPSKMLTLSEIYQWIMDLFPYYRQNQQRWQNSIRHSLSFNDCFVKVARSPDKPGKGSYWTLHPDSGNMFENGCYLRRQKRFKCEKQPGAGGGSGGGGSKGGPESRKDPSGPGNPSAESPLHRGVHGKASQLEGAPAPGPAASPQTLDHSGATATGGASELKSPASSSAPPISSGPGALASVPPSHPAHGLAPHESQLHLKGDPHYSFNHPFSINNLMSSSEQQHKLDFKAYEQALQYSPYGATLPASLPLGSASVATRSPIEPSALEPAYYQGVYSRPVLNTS
Method: EMSA with sequencing
Molecule type: double-stranded DNA, one strand shown
Sample: in vitro
Concentration: 10 and 20 nM
Setting: whole designed probe, mean of two concentrations, ends assumed
Baseline: negative control set to 0
Reading: higher = stronger binding
Shared flanks, not repeated: GTGAGCGGTGCCCATTGATGGGGAAC … TTTCACTGGGATCGTGGGGAC
Oligonucleotide	normalised bound fraction
ATCTTCCCCCTCTTCCTTGCCCCACCAGCTCACCTTCCCGGGTTATTTGCACAAAGGAAAATAAATAAAGCCGGCATTCGTTAACCCTCTTCTGGCGCAAACTGCTGTTTGCTCTGGATGAATCATGGTCCTTTGGCGACGCCAGGCTCCGGGAGAGCAAAGCACCGTGTCAGGGCCATGATCCGGGGTGGCC	0.351 ratio
ATCTTCCCCCTCTTCCTTGCCCCACCAGCTCACCTTCCCGGGTTATTTGCACAAAGGAAAATAAATAAAGCCGGCATTCGTTAACCCTCTTCACGCGCATACTGCTGTTTGCTCTGGATCTAACATGGTCCTTTGGCGACGCCAGGCTCCGGGAGAGCAAAGCACCGTGTCAGGGCCATGATCCGGGCTCGCC	0.376 ratio
AAGCTTCAAATTTTTTATTAGGTTTCACAATGCATTTCTAGATAGAAATTAAAATATAACATGCCATAGAGATTATAATGTAAACAGATATTTGTTTACTTAGCACTTCATTGCAATTTCTTTATATAACAAATCCAATTTACCAACATATTAACGTATGGGTGTATGCAATCATGATTATATTGGTTCTGCT	0.574 ratio
TTTGCAAAAAATAACACAACCCTTTTCACACAGCTATCTTTCAGCTGGAAGTGACGAAGCTACATAATTCTGACAAATGAAACGTAAGTGCTTGTTTACTCTGTGGTTTTTGGGCAAGCATATCCTTCCATGATATGCATGTTGTCTCTTCCCTCCTCCTTCTTCTCTGCAATGGAAGATCATTGTGATACTT	0.353 ratio
AGACTGGCTGCCCGGCTGGAAGGTGGGGCCCTGGCACGCGAGGACCTCATGTGTGGAGGCACTGGCTTGGGGGGTGCTCCCAGTGGCTCTAGAGTCAACATGACAGGCATCGAATGGCTCCTGTTTCTCTGGCAGAGTTGGGGCAGAGCCAGGCTTGGCCACGCTGGGCTCTAAGGGGCTGTCATTTTGCCCA	0.0934 ratio

Set 2
Target: CCNA1, cyclin fold, Cln2 fusion (human)
Method: yeast growth competition, sequencing
Sample: yeast
Setting: weak parent motif
Baseline: not given
Reading: higher = stronger binding
Parent: SCAPER docking peptide (human); SNARRSLNFGGST
Variant	normalised enrichment score
L7P	0.261
S12N	1.03
G11W	0.527
G11S	0.597
R5A L7A	0.0523

Set 3
Target: Transcription factor SOX-2, HMG box (Sox2, Mus musculus, UniProt P48432, residues 41-119)
UniProt P48432, sequence (41-119, looked up): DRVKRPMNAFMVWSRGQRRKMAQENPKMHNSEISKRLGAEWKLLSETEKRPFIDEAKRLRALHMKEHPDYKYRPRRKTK
Method: Spec-seq
Molecule type: double-stranded DNA, one strand shown
Sample: in vitro
Concentration: not given
Setting: whole probe, mean of replicates
Baseline: not given
Reading: lower = stronger binding
Shared flanks, not repeated: GAGTCGTCTCGTCAGCAC … CCGTAGAGCACTCAGGTC
Oligonucleotide	relative binding energy [ln ratio]
CATAAGC	-0.0111
CATGTAC	0.28
CATATCT	0.419
TGCGGTT	1.04
CATAGGC	-0.533
CATAGAT	-0.853
TAAAGTT	0.0519
GGTGGTT	1.37

Single results of other studies
Molecule	target	assay	test system	conditions	how to read	endpoint	result
PhoQ, residues 284 288 289 292 302 303 TASMAF	PhoP, residues 12 14 15 18 19 LYFRQ (Escherichia coli, UniProt P23836)	Sort-seq, refers to: YFP reporter	E. coli	PhoQ-PhoP variant library, with: 10 µM Mg2+	baseline: high Mg2+ state, higher = stronger signaling	fold induction	14.5

Repeated from above (set 2):
Variant	normalised enrichment score
L7P	0.261
S12N	1.03
